Measurements gathered from unrelated publications.
A part holds a random share of what one study measured.
Chain of UniProt Q9NRP7 (whole entry, looked up): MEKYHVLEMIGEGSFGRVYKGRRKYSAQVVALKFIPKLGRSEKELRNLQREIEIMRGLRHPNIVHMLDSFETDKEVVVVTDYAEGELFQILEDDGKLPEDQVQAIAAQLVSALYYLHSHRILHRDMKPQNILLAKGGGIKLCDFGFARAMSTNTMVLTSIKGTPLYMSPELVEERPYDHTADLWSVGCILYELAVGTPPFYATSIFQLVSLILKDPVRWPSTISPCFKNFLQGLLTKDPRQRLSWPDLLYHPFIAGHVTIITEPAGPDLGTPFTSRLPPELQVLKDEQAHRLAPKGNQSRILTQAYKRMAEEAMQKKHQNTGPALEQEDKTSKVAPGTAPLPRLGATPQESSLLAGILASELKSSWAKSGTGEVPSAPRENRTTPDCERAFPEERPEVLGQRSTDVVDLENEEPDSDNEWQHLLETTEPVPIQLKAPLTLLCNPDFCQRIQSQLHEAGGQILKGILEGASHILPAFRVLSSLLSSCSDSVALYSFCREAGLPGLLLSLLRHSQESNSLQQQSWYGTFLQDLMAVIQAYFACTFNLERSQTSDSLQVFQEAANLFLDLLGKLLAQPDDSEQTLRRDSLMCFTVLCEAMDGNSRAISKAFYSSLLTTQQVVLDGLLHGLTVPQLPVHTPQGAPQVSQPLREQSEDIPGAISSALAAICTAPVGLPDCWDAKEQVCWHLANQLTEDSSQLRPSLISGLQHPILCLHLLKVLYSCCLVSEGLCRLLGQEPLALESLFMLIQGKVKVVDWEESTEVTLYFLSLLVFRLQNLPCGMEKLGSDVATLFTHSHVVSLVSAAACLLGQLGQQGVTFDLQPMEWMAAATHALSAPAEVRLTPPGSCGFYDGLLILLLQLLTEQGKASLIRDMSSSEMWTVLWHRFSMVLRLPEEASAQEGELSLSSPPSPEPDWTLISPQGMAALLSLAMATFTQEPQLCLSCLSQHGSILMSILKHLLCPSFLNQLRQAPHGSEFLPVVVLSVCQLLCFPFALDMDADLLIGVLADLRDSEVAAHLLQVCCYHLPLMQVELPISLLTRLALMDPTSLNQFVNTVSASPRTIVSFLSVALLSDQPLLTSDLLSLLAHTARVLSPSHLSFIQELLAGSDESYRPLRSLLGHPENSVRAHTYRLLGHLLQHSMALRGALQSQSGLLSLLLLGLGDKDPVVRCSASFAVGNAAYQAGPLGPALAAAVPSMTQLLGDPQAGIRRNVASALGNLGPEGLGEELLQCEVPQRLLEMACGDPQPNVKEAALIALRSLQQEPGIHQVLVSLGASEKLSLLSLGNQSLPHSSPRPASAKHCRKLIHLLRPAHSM
Chain of UniProt Q12866 (whole entry, looked up): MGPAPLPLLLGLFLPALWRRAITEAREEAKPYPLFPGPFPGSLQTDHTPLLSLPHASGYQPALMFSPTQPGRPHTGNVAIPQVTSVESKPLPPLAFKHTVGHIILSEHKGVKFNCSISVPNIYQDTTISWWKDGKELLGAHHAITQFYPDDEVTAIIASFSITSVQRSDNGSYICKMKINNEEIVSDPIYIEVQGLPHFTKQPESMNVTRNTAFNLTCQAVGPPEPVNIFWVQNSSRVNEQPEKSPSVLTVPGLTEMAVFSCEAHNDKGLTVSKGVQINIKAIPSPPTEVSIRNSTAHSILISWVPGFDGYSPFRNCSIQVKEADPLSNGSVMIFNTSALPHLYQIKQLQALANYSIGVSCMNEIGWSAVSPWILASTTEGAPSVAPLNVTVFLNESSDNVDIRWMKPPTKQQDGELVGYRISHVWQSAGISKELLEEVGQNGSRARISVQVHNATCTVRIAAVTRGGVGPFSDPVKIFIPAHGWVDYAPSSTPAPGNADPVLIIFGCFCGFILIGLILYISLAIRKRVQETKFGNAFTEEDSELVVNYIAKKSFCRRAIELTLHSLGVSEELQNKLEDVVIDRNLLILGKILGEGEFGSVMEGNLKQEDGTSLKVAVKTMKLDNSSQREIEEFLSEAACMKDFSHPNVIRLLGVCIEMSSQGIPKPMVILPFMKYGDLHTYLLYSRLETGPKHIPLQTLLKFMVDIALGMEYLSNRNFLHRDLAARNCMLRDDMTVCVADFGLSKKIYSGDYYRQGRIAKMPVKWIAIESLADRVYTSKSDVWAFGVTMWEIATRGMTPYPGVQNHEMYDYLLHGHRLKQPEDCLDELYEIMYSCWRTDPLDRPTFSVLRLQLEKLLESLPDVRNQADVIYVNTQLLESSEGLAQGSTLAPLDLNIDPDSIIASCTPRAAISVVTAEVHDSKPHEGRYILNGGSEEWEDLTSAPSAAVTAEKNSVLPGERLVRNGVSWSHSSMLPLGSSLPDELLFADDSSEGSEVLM
Chain of UniProt Q9UL54 (whole entry, looked up): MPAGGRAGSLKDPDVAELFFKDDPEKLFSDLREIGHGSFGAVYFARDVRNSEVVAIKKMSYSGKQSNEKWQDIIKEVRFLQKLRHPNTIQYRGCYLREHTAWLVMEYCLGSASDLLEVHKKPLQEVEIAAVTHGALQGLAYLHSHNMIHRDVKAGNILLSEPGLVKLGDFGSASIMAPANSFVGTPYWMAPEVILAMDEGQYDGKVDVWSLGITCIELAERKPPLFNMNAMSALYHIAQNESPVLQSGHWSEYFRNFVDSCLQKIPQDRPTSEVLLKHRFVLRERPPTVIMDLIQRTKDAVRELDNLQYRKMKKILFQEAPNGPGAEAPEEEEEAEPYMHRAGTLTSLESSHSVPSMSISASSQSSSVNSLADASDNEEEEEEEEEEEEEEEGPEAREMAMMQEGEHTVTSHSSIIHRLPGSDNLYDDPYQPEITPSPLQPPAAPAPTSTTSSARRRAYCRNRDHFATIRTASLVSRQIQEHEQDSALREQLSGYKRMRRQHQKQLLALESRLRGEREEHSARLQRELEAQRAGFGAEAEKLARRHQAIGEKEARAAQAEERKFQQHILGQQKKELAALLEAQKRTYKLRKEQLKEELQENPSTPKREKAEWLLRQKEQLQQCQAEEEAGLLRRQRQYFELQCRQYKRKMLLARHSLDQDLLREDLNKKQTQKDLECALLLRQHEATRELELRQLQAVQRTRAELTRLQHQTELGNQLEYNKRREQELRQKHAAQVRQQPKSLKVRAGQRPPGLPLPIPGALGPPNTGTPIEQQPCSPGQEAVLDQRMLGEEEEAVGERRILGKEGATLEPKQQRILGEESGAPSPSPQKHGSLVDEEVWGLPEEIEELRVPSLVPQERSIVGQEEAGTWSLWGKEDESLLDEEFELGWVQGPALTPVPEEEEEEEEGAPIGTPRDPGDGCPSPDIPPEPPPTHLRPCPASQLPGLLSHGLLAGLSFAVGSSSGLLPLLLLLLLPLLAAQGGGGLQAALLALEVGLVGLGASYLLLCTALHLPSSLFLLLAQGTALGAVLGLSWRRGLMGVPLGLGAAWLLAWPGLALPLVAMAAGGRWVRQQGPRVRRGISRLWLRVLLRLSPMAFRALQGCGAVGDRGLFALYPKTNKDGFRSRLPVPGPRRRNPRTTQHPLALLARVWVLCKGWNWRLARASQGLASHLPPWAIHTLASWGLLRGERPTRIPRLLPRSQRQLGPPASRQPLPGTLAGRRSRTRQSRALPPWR
Chain of UniProt Q15139 (whole entry, looked up): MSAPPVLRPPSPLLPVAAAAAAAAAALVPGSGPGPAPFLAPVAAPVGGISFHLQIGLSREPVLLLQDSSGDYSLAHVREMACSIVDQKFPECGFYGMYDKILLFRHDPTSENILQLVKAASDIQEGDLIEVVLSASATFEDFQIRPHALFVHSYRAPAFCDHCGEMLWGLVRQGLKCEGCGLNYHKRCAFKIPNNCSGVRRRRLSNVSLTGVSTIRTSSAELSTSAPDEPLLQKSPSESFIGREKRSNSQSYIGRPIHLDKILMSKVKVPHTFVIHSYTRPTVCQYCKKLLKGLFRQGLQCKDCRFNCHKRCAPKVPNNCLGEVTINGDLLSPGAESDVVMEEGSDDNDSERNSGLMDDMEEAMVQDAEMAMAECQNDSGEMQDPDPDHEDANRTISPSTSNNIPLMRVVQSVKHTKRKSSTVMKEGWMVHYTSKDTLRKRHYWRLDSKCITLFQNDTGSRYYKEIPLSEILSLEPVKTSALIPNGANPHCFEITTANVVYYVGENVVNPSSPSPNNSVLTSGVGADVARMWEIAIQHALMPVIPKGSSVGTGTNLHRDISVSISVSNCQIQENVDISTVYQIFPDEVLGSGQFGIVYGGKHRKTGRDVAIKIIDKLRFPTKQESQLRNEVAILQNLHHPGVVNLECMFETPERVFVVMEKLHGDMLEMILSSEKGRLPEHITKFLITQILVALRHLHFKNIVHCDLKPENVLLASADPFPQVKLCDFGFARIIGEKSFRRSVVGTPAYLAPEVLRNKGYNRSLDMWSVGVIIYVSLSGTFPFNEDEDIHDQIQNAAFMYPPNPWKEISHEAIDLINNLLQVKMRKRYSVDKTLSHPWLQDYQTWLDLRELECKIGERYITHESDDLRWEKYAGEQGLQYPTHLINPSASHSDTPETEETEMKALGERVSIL

Sample 1
Organism: Sarcocystis neurona
Read-out: parasite activity
Tested at: 10 µM
Time: 96 h
| Structure (SMILES) | activity class |
| --- | --- |
| O=c1cnn([C@@H]2O[C@H](CO)[C@@H](O)[C@H]2O)c(=O)[nH]1 | inactive |
| CN1CCN(C2=Nc3ccccc3Oc3ccc(Cl)cc32)CC1 | inactive |
| O=c1n(CCCN2CCN(c3cccc(Cl)c3)CC2)nc2ccccn12 | inactive |
| CC(C)(C)NC(=O)[C@@H]1C[C@@H]2CCCC[C@@H]2CN1C[C@@H](O)[C@H](Cc1ccccc1)NC(=O)[C@H](CC(N)=O)NC(=O)c1ccc2ccccc2n1 | inactive |
| N[C@@H](C(=O)N[C@@H]1C(=O)N2C(C(=O)O)=C(Cl)CS[C@H]12)c1ccccc1 | inactive |
| CC(=O)NCCCCCCNC(C)=O | inactive |
| CC(=O)SCC(Cc1ccccc1)C(=O)NCC(=O)OCc1ccccc1 (stereo not drawn) | inactive |
| CC[C@H](C)C(=O)O[C@H]1C[C@H](O)C=C2C=C[C@H](C)[C@H](CC[C@@H](O)C[C@@H](O)CC(=O)O)[C@H]21 | inactive |
| CC(COc1ccccc1)NC(C)C(O)c1ccc(O)cc1 (stereo not drawn) | inactive |
| CC(=O)Oc1ccccc1C(=O)Nc1ncc([N+](=O)[O-])s1 | inactive |
| CCN1CCN(C(=O)N[C@@H](C(=O)N[C@@H]2C(=O)N3[C@@H]2SC(C)(C)[C@@H]3C(=O)O)c2ccccc2)C(=O)C1=O | inactive |
| COc1cc2nc(N(C)CCCNC(=O)C3CCCO3)nc(N)c2cc1OC (stereo not drawn) | inactive |

Sample 2
Target: Calcium/calmodulin-dependent protein kinase type II subunit alpha (CAMK2A, Homo sapiens, UniProt Q9UQM7)
Chain of UniProt Q9UQM7 (whole entry, looked up): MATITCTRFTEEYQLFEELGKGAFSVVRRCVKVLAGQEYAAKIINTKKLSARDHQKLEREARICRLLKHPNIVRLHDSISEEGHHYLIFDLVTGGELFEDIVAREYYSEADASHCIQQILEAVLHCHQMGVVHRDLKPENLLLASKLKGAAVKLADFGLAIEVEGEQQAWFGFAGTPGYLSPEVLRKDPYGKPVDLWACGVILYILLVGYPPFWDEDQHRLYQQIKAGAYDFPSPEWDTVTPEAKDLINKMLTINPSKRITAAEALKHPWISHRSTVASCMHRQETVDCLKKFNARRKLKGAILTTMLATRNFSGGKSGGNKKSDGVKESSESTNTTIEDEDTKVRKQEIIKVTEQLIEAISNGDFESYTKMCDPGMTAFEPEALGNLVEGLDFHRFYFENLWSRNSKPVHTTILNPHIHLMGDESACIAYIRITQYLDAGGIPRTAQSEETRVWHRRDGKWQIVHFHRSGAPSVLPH
Read-out: enzyme activity
Action: inhibitor
Tested at: 10 µM
| Compound | inhibition [%] |
| --- | --- |
| COc1cc(OC)c(C(=O)CCCN2CCCC2)c(OC)c1 | -6 |
| COC(=O)C1=C(O)c2ccccc2C(=O)[C@]1(CC=C(C)C)C1=CC(=O)c2ccccc2C1=O | 19 |
| Cc1cc(CC(=O)O)n(C)c1C(=O)c1ccc(Cl)cc1 | 7 |
| O=C1CC[C@H](NC(=O)Cc2ccccc2)C(=O)N1 | -4 |
| O=C(O)C#Cc1ccccc1 | -59 |
| Cc1cnccn1 | 51 |
| COC(=O)/C=C/c1ccc(O)c(OC)c1 | -15 |
| COc1ccccc1C(=O)O | -3 |
| COC(=O)c1c(C)cc(OC(=O)c2c(C)cc(O)c(C=O)c2O)c(C)c1O | -18 |
| CCCCC[C@H](CC(=O)NO)C(=O)N[C@H](C(=O)N1CCC[C@H]1CO)C(C)C | -18 |
| CN(C)CC/C=C1\c2ccccc2COc2ccccc21 | -12 |
| CCC(=O)O[C@]1(C(=O)SCF)[C@H](C)C[C@H]2[C@@H]3C[C@H](F)C4=CC(=O)C=C[C@]4(C)[C@@]3(F)[C@@H](O)C[C@@]21C | -6 |
| CCN1C(=O)N(c2c(F)c(OC)cc(OC)c2F)Cc2cnc3[nH]c(CN4CCOCC4)cc3c21 | -8 |

Sample 3
Structure (SMILES): CN(C)c1ccc(C=C2C(=O)Nc3ccccc32)cc1
Read-out: enzyme activity
Action: inhibitor
Tested at: 0.5 µM
Reference: control
| target | remaining activity [%] |
| --- | --- |
| Glycogen synthase kinase-3 beta (GSK3B, Homo sapiens, UniProt P49841) | 111 |
| Serine/threonine-protein kinase A-Raf (ARAF, Homo sapiens, UniProt P10398) | 94.3 |
| Serine/threonine-protein kinase Nek1 (NEK1, Homo sapiens, UniProt Q96PY6) | 112 |
| Fibroblast growth factor receptor 1 (FGFR1, Homo sapiens, UniProt P11362) | 92 |
| Activin receptor type-1B (ACVR1B, Homo sapiens, UniProt P36896) | 93.4 |
| Wee1-like protein kinase (WEE1, Homo sapiens, UniProt P30291) | 88.6 |
| Mitogen-activated protein kinase 3 (MAPK3, Homo sapiens, UniProt P27361) | 102 |
| Serine/threonine-protein kinase TBK1 (TBK1, Homo sapiens, UniProt Q9UHD2) | 98.4 |
| Tyrosine-protein kinase Lck (LCK, Homo sapiens, UniProt P06239) | 93 |
| Serine/threonine-protein kinase TAO2 (TAOK2, Homo sapiens, UniProt Q9UL54) | 102 |
| Ribosomal protein S6 kinase alpha-2 (RPS6KA2, Homo sapiens, UniProt Q15349) | 89.1 |
| Tyrosine-protein kinase FRK (FRK, Homo sapiens, UniProt P42685) | 102 |
| Mitogen-activated protein kinase kinase kinase 5 (MAP3K5, Homo sapiens, UniProt Q99683) | 99.4 |
| Tyrosine-protein kinase Mer (MERTK, Homo sapiens, UniProt Q12866) | 92.7 |

Sample 4
SMILES: Nc1c(C(=O)NCc2ccc(C(=O)NCCCC3CCCCC3)cc2)cnn1-c1ccccc1
Tested at: 0.1 µM
| target | assay | remaining binding [%] |
| --- | --- | --- |
| Serine/threonine-protein kinase D1 (PRKD1, Homo sapiens, UniProt Q15139) | cell-free assay, competition with immobilised ligand | 100 |
| Serine/threonine-protein kinase PAK 6 (PAK6, Homo sapiens, UniProt Q9NQU5) | cell-free assay, competition with immobilised ligand | 100 |
| Tyrosine-protein kinase Lyn (LYN, Homo sapiens, UniProt P07948) | cell-free assay, competition with immobilised ligand | 100 |
| Serine/threonine-protein kinase MRCK gamma (CDC42BPG, Homo sapiens, UniProt Q6DT37) | competition binding | 100 |
| 5'-AMP-activated protein kinase catalytic subunit alpha-1 (PRKAA1, Homo sapiens, UniProt Q13131) | cell-free assay, competition with immobilised ligand | 100 |
| Mitogen-activated protein kinase kinase kinase 13 (MAP3K13, Homo sapiens, UniProt O43283) | cell-free assay, competition with immobilised ligand | 100 |
| Tyrosine-protein kinase ABL1, phosphorylated (ABL1, Homo sapiens, UniProt P00519, F317L) | cell-free assay, competition with immobilised ligand | 100 |
| Serine/threonine-protein kinase 36 (STK36, Homo sapiens, UniProt Q9NRP7) | cell-free assay, competition with immobilised ligand | 100 |
| Epidermal growth factor receptor (EGFR, Homo sapiens, UniProt P00533, del746-750) | cell-free assay, competition with immobilised ligand | 98 |

For quick reference, copied from above (sample 4):
| target | assay | remaining binding [%] |
| --- | --- | --- |
| Serine/threonine-protein kinase D1 (PRKD1, Homo sapiens, UniProt Q15139) | cell-free assay, competition with immobilised ligand | 100 |
| Serine/threonine-protein kinase PAK 6 (PAK6, Homo sapiens, UniProt Q9NQU5) | cell-free assay, competition with immobilised ligand | 100 |
| 5'-AMP-activated protein kinase catalytic subunit alpha-1 (PRKAA1, Homo sapiens, UniProt Q13131) | cell-free assay, competition with immobilised ligand | 100 |
| Serine/threonine-protein kinase 36 (STK36, Homo sapiens, UniProt Q9NRP7) | cell-free assay, competition with immobilised ligand | 100 |
